Measured values from different studies.
Every numbered part comes from another study and shows a few of its results, in no order. Changes are numbered by the printed parent chain.

Study 1
Target: ABI1, truncated, D143A, DHFR fusion (Arabidopsis thaliana)
Technique: DHFR PCA, deep sequencing
Matrix: yeast
Notes: methotrexate growth selection, single substitutions
Together with: (+)-ABA 710 µM
Baseline: wild-type fitted maximum
Direction: higher = stronger binding
Parent: PYL1, truncated, DHFR fusion (Arabidopsis thaliana); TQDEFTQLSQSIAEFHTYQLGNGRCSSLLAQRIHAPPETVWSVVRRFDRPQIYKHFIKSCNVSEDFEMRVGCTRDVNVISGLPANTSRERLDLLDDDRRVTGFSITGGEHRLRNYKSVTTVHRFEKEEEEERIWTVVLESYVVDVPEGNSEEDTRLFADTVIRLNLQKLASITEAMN
`F103Y`: “relative binding score” 108%.
`T39K`: “relative binding score” 103%.
Under “relative binding score”, `V40Y` is recorded as -10.6%.
`P83L`: “relative binding score” 13.2%.
`S140Q`: “relative binding score” 30.7%.
Under “relative binding score”, `S80V` is recorded as 35%.
Under “relative binding score”, `L156C` is recorded as 103%.
`I162W`: “relative binding score” -14.1%.

Study 2
Target: CCND3, cyclin fold, Cln2 fusion (human)
Technique: yeast growth competition, sequencing
Matrix: yeast
Notes: weak parent motif
Baseline: not given
Direction: higher = stronger binding
Parent: AKAP12 docking peptide (human); GSPLKKLFTSTGL; partner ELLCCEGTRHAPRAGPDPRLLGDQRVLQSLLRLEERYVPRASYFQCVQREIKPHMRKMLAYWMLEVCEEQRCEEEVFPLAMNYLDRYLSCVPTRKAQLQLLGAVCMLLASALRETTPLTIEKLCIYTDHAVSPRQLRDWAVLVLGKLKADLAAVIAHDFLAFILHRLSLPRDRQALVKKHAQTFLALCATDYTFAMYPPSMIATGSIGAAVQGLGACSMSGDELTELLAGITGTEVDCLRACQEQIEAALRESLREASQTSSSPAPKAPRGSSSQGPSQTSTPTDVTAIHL
`L13A`: “normalised enrichment score” 0.0966.
`F8L`: “normalised enrichment score” -0.525.
Under “normalised enrichment score”, `F8A` is recorded as 0.00547.
Under “normalised enrichment score”, `G1A` is recorded as 0.0745.
For `T11A`, “normalised enrichment score” read 0.00638.
For `G12A`, “normalised enrichment score” read -0.0338.
`S10A` — result for “normalised enrichment score”: 0.167.

Study 3
Target: OGT, full length, His-tagged (human)
Technique: phage display, sequencing
Matrix: in vitro
Tested at: 1 µg OGT
Notes: single substitutions, 15-mer displayed peptide, unchanged parent 5.27
Baseline: input library
Direction: higher = stronger binding
Parent: peptide; GDFPVMFMPKYSIIY; partner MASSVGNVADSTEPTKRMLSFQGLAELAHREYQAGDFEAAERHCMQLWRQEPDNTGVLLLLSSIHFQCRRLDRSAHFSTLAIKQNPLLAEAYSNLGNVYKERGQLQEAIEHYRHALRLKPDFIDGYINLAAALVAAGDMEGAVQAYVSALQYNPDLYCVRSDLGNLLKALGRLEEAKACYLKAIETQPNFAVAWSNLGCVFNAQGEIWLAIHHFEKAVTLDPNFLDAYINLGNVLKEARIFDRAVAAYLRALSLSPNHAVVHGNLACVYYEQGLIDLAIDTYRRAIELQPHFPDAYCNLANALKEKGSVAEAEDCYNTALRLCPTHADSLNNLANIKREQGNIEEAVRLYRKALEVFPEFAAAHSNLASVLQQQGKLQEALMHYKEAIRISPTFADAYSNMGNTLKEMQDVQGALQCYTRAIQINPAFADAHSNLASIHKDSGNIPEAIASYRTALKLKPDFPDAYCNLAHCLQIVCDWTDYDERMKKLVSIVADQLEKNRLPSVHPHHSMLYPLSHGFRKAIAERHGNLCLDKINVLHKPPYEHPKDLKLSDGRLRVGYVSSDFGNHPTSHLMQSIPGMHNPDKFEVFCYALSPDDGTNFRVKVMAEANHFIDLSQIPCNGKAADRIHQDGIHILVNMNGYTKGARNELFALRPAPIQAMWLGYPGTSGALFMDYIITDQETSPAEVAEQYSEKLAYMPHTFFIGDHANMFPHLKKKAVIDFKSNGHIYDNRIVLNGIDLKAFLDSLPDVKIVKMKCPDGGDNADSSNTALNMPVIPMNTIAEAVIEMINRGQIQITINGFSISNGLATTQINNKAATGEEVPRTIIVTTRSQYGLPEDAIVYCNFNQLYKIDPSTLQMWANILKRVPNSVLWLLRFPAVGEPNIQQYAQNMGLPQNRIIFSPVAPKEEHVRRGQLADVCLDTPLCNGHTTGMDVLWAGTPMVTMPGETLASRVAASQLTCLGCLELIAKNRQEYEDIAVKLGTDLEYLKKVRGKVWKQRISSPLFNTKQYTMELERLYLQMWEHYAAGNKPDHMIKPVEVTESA
The fold enrichment of `GDFPVMFHPKYSIIY [M8H]` is reported as 1.51 fold.
`GDFPVMGMPKYSIIY [F7G]` has a fold enrichment of 0.779 fold.
For `GDFPVMFMPKYSIQY [I14Q]`, the fold enrichment was 1.96 fold.
`GDFPVMFMPKHSIIY [Y11H]` has a fold enrichment of 1.26 fold.
The fold enrichment of `GDFPVMFMPKYSYIY [I13Y]` is reported as 1.17 fold.
`GDFPVMFMPKWSIIY [Y11W]` gave a fold enrichment of 1.43 fold.
`GDFPVMFMPKYSILY [I14L]` gave a fold enrichment of 2.61 fold.

Further values, each from its own experiment
The fold induction of `PhoQ, residues 284 288 289 292 302 303 AAQSYM` is reported as 5.63 (PhoP, residues 12 14 15 18 19 IQSYL (Escherichia coli, UniProt P23836); Sort-seq, measured: YFP reporter; E. coli; PhoQ-PhoP variant library, together with: 10 µM Mg2+; baseline: high Mg2+ state, higher = stronger signaling).
